Measured values gathered from unrelated publications.
Numbers after ± are the reported error. Converted amounts (≈) assume the structure as drawn.

SMILES	organism	assay	system	conditions	how to read	quantity	value
CC[C@H](C)[C@H](NC(=O)[C@H](CCCCN)NC(=O)[C@H](CCCCN)NC(=O)[C@H](CC(C)C)NC(=O)[C@H](CCCCN)NC(=O)[C@H](CCC(=O)O)NC(=O)[C@H](CCCCN)NC(=O)[C@@H](NC(=O)[C@H](CCCCN)NC(=O)[C@H](CC(N)=O)NC(=O)[C@H](CCCNC(=N)N)NC(=O)[C@H](Cc1ccccc1)NC(=O)[C@H](CCCCN)NC(=O)[C@H](CCCNC(=N)N)NC(=O)[C@H](CC(C)C)NC(=O)[C@H](CCCNC(=N)N)NC(=O)[C@H](CCCCN)NC(=O)[C@H](CCCNC(=N)N)NC(=O)[C@@H](N)CC(C)C)[C@@H](C)CC)C(=O)NCC(=O)N[C@@H](CCC(N)=O)C(=O)N[C@@H](CCCCN)C(=O)N[C@H](C(=O)N[C@@H](CCC(N)=O)C(=O)NCC(=O)N[C@@H](Cc1ccccc1)C(=O)N[C@H](C(=O)N1CCC[C@H]1C(=O)N[C@@H](CCCCN)C(=O)N[C@@H](CC(C)C)C(=O)O)C(C)C)[C@@H](C)CC	Streptomyces scabiei	inhibition zone	CGMCC 4.176	LB agar, overnight	–	lethal concentration	3.1 µM
C[Se][C@@H]1O[C@H](COC(C)=O)[C@@H](OC(C)=O)[C@H](OC(C)=O)[C@H]1NC(C)=O	Trypanosoma brucei brucei	–	bloodstream form	5 µM, 24 h, 1 % DMSO	–	viability	96.4 ± 13.4%
CON(C(=O)c1cn(C)nc1C(F)F)C(C)Cc1c(Cl)cc(Cl)cc1Cl (centres unmarked)	Fusarium oxysporum	–	–	1.56 µg/mL	–	inhibition	92%
CC[C@H](C)[C@H](NC(=O)[C@H](CCCNC(=N)N)NC(=O)[C@@H]1CCCN1C(=O)[C@@H](NC(=O)[C@H](CO)NC(=O)[C@H](CCCCN)NC(=O)[C@H](CO)NC(=O)[C@H](CC(C)C)NC(=O)[C@H](CCCCN)NC(=O)[C@H](CC(C)C)NC(=O)[C@H](Cc1ccccc1)NC(=O)[C@H](Cc1ccccc1)NC(=O)CNC(=O)[C@@H]1CCCN1C(=O)[C@@H](NC(=O)[C@H](CCC(=O)O)NC(=O)[C@@H](N)CC(=O)O)[C@@H](C)O)C(C)C)C(N)=O	Aedes aegypti	agonist	pharate pupae	intra-abdominal injection, 10 fmol, 9-12 h before ecdysis	–	latency to ecdysis contractions	8 to 9 min
CC[C@H](C)[C@H](NC(=O)[C@H](CO)NC(=O)[C@H](CO)NC(=O)[C@H](Cc1ccccc1)NC(=O)CN)C(=O)N[C@@H](Cc1ccccc1)C(=O)N[C@@H](CCCNC(=N)N)C(=O)NCC(=O)N[C@H](C(=O)N[C@@H](C)C(=O)N[C@@H](CCCCN)C(N)=O)C(C)C	Escherichia coli	–	ATCC 8739	with: 6 µM NH4Cl	–	MBC	> 128 µM
O=C(C1CCN(c2nnnn2-c2ccccc2)CC1)N1CCCc2ccccc21	Plasmodium falciparum	parasite growth	DD2	72 h, drug-resistant strain, blood stage	–	IC50	0.72 µM
C[C@@H]1C[C@H](Nc2ccccc2)c2cc(F)ccc2N1C(=O)c1ccc(Cl)c(Cl)c1	Aedes albopictus	–	second-instar larvae	72 h	–	LC50	0.525 µM
CN(C)CCCNC(=O)[C@@H]1NC(=O)[C@@H]2Cc3ccc(cc3)Oc3cc4cc(c3O)-c3ccc5c(c[nH]c5c3)C[C@@H](NC(=O)C(NC(=O)CCCCCN)c3ccc(O)cc3)C(=O)N[C@H](c3ccc(O)cc3)C(=O)N[C@H]4C(=O)N[C@@H](C(=O)N2C)c2ccc(cc2)Oc2cc1ccc2O (some centres unmarked)	Enterococcus faecium	–	WCC 0506, VRE-A	–	–	MIC	1 to 2 mg/L (≈ 0.758 to 1.52 µM)
COc1ccc(Br)cc1/C=N/NC(=O)Cn1ccc(=O)c2ccccc21	Tobacco mosaic virus	viral infectivity, in vivo plant	–	100 µg/mL	–	inactivation activity	0%
CC(=O)CCC1C(=O)NC(C(C)C)C(=O)NC(Cc2cc(O)cc(F)c2)C(=O)N2CCCC(N2)C(=O)OC(C(C)=CC=CC(=O)N2CCCCO2)CC=CC=CC(O)C(C)C1O (centres unmarked)	hepatitis B virus	–	HBV DNA transfected cells	2 µM, day 3	baseline: untreated	HBsAg level	8.8%
N=C(N)c1ccc(/C=C/c2ccc(C(=N)N)cc2O)cc1	Streptococcus mutans	growth	–	–	–	MIC50	179 ± 23 µM
O=C(Cn1ccc(=O)c2ccccc21)N/N=C/c1cc(Br)c(O)c(Br)c1	Tobacco mosaic virus	viral infectivity, in vivo plant	–	500 µg/mL	–	inactivation activity	23.8 ± 2.5%
COC(=O)C1=CO[C@@H](C)[C@@H]2Cn3ccc4c5ccccc5nc-4c3C[C@H]12	Plasmodium falciparum	parasite growth, [3H]-hypoxanthine incorporation	C2B atovaquone-resistant	48 h	baseline: 3D7 over C2B	IC50 fold decrease	27 fold
Nc1ccn(C[C@@H](CO)OCP(=O)(O)OCCCS(=O)(=O)CCCCCCCCCCCCCC2CCC2)c(=O)n1	human gammaherpesvirus 8	qPCR	BCBL-1	–	baseline: CC50 over EC50	selectivity index	89
C[C@@H]1C[C@H](Nc2ccccc2)c2cc(F)ccc2N1C(=O)c1ccc(N)cc1	Aedes albopictus	–	–	1 µM, 72 h, second-instar larvae	baseline: Abbott-corrected control	mortality	6 ± 6%
OC[C@H]1O[C@@H]([Se]Cc2ccc(C[Se][C@@H]3O[C@H](CO)[C@H](O)[C@H](O)[C@H]3O)c3ccccc23)[C@H](O)[C@@H](O)[C@H]1O	Trypanosoma brucei	parasite growth, flow cytometry	–	5 µM, 24 h	–	viability	94.5%
NNC(=O)/C=C/c1ccc(N)cc1	Aedes aegypti	larval mortality	–	24 h, larva	–	LC50	238 mg/L
S=C(NCc1ccccn1)NCc1ccccn1	Proteus vulgaris	microbial growth, well diffusion	–	10 µg/mL	–	inhibition zone	12 mm
CC[C@@H](C)[C@@H](NC(=O)[C@@H](C)NC(=O)[C@@H](CCCCN)NC(=O)[C@@H](CC(C)C)NC(=O)[C@@H](C)NC(=O)[C@H](NC(=O)[C@@H](Cc1c[nH]cn1)NC(=O)[C@@H](CC(C)C)NC(=O)[C@H](NC(=O)[C@H](NC(=O)[C@@H](CCCCN)NC(=O)[C@@H](CCCCN)NC(=O)[C@@H](C)NC(=O)[C@@H](CO)NC(=O)[C@@H](CCCCN)NC(=O)[C@@H](Cc1ccccc1)NC(=O)[C@H](NC(=O)[C@@H](CCCCN)NC(=O)[C@@H](CC(C)C)NC(=O)[C@@H](Cc1ccccc1)NC(=O)[C@@H](CO)NC(=O)[C@@H](CCCCN)NC(=O)[C@@H](Cc1c[nH]c2ccccc12)NC(=O)[C@@H](CCCCN)NC(C)=O)[C@H](C)O)[C@H](C)O)C(C)C)[C@H](C)O)C(=O)N[C@H](CO)C(=O)N[C@H](CO)C(N)=O	Rhizopus microsporus	–	clinical isolate	48 h, 30 °C	–	MIC50	6.3 mg/L
N=C(N)NCCC[C@H](NC(=O)[C@H](Cc1c[nH]c2ccccc12)NC(=O)[C@H](CCCNC(=N)N)NC(=O)[C@H](CCCNC(=N)N)NC(=O)[C@@H]1CCCN1C(=O)[C@H](CCCCN)NC(=O)[C@@H](N)CCCNC(=N)N)C(=O)N[C@@H](Cc1c[nH]c2ccccc12)C(=O)N[C@@H](Cc1c[nH]c2ccccc12)C(=O)N1CCC[C@H]1C(=O)N[C@@H](CCCCN)C(=O)N[C@@H](CCCNC(=N)N)C(=O)N1CCC[C@H]1C(=O)O	Staphylococcus aureus	ELISA, refers to: IL-6	09057, BALB/c mice, sepsis model	intraperitoneal, 20 mg/kg, 12 h	baseline: saline	serum cytokine level	decreased
CCC(C)C(=O)OC1C(C)C(OC)C=COC2(C)Oc3c(C)c(O)c4c(c3C2=O)C2=NC3(CCN(CC(C)C)CC3)NC2=C(NC(=O)C(C)=CC=CC(C)C(O)C(C)C(O)C1C)C4=O (mixture of isomers)	Mycobacteroides abscessus	–	ATCC 19977	–	baseline: wild type over arr deletion	MIC ratio	39.3
C[C@@H]1C[C@H](Nc2ccccc2)c2cc(F)ccc2N1C(=O)c1ccc(Cl)c(F)c1	Aedes albopictus	–	second-instar larvae	72 h	–	LC50	0.2 µM
O=[N+]([O-])c1ccc(/C=N/N=C/c2ccc(Br)cc2)o1	Trypanosoma congolense	–	IL3000, mouse	oral, 100 mg/kg daily for 7 days, from day 4 post-infection	–	day of death	10 days post-infection

Repeated from above:
SMILES	organism	assay	system	conditions	how to read	quantity	value
CC[C@H](C)[C@H](NC(=O)[C@H](CCCCN)NC(=O)[C@H](CCCCN)NC(=O)[C@H](CC(C)C)NC(=O)[C@H](CCCCN)NC(=O)[C@H](CCC(=O)O)NC(=O)[C@H](CCCCN)NC(=O)[C@@H](NC(=O)[C@H](CCCCN)NC(=O)[C@H](CC(N)=O)NC(=O)[C@H](CCCNC(=N)N)NC(=O)[C@H](Cc1ccccc1)NC(=O)[C@H](CCCCN)NC(=O)[C@H](CCCNC(=N)N)NC(=O)[C@H](CC(C)C)NC(=O)[C@H](CCCNC(=N)N)NC(=O)[C@H](CCCCN)NC(=O)[C@H](CCCNC(=N)N)NC(=O)[C@@H](N)CC(C)C)[C@@H](C)CC)C(=O)NCC(=O)N[C@@H](CCC(N)=O)C(=O)N[C@@H](CCCCN)C(=O)N[C@H](C(=O)N[C@@H](CCC(N)=O)C(=O)NCC(=O)N[C@@H](Cc1ccccc1)C(=O)N[C@H](C(=O)N1CCC[C@H]1C(=O)N[C@@H](CCCCN)C(=O)N[C@@H](CC(C)C)C(=O)O)C(C)C)[C@@H](C)CC	Streptomyces scabiei	inhibition zone	CGMCC 4.176	LB agar, overnight	–	lethal concentration	3.1 µM
C[Se][C@@H]1O[C@H](COC(C)=O)[C@@H](OC(C)=O)[C@H](OC(C)=O)[C@H]1NC(C)=O	Trypanosoma brucei brucei	–	bloodstream form	5 µM, 24 h, 1 % DMSO	–	viability	96.4 ± 13.4%
CON(C(=O)c1cn(C)nc1C(F)F)C(C)Cc1c(Cl)cc(Cl)cc1Cl (centres unmarked)	Fusarium oxysporum	–	–	1.56 µg/mL	–	inhibition	92%
CC[C@H](C)[C@H](NC(=O)[C@H](CCCNC(=N)N)NC(=O)[C@@H]1CCCN1C(=O)[C@@H](NC(=O)[C@H](CO)NC(=O)[C@H](CCCCN)NC(=O)[C@H](CO)NC(=O)[C@H](CC(C)C)NC(=O)[C@H](CCCCN)NC(=O)[C@H](CC(C)C)NC(=O)[C@H](Cc1ccccc1)NC(=O)[C@H](Cc1ccccc1)NC(=O)CNC(=O)[C@@H]1CCCN1C(=O)[C@@H](NC(=O)[C@H](CCC(=O)O)NC(=O)[C@@H](N)CC(=O)O)[C@@H](C)O)C(C)C)C(N)=O	Aedes aegypti	agonist	pharate pupae	intra-abdominal injection, 10 fmol, 9-12 h before ecdysis	–	latency to ecdysis contractions	8 to 9 min
